Measured values gathered from unrelated publications.
Numbered parts are unrelated; each lists some results of a single study.
Chain of UniProt Q96RG2 (whole entry, looked up): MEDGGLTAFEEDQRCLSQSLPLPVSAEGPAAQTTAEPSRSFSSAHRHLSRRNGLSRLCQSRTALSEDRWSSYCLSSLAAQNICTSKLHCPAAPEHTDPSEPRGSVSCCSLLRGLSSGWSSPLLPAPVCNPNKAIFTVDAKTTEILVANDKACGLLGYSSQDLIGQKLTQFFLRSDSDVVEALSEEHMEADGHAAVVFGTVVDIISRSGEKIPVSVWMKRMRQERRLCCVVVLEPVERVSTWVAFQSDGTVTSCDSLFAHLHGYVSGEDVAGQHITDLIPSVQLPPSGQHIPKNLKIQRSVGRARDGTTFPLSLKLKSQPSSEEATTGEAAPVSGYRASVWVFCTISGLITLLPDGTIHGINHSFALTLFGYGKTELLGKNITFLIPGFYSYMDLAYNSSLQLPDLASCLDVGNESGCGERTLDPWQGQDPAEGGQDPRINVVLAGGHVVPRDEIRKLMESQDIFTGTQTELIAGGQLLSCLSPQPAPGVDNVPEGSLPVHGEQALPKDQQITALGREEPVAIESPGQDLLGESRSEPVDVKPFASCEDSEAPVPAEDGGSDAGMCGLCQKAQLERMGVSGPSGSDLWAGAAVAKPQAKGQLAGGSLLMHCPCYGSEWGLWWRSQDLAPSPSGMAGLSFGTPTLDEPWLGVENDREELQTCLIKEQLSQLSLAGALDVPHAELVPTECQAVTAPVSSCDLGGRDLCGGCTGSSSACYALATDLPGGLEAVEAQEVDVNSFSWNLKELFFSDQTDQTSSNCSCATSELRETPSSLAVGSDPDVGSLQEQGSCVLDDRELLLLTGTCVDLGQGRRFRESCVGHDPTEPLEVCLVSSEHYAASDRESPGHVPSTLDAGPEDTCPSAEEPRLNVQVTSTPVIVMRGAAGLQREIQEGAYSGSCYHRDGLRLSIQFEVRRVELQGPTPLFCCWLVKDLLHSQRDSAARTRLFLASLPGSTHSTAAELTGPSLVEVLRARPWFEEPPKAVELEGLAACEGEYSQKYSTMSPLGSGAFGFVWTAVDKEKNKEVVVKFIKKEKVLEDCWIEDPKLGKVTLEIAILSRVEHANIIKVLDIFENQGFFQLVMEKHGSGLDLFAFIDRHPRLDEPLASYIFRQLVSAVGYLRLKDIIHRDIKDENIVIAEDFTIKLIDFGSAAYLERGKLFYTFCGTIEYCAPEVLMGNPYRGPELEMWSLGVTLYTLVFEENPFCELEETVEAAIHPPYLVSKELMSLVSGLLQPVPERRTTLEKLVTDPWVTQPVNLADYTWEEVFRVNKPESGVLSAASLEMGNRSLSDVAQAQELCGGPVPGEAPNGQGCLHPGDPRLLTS
Chain of UniProt Q5VT25 (whole entry, looked up): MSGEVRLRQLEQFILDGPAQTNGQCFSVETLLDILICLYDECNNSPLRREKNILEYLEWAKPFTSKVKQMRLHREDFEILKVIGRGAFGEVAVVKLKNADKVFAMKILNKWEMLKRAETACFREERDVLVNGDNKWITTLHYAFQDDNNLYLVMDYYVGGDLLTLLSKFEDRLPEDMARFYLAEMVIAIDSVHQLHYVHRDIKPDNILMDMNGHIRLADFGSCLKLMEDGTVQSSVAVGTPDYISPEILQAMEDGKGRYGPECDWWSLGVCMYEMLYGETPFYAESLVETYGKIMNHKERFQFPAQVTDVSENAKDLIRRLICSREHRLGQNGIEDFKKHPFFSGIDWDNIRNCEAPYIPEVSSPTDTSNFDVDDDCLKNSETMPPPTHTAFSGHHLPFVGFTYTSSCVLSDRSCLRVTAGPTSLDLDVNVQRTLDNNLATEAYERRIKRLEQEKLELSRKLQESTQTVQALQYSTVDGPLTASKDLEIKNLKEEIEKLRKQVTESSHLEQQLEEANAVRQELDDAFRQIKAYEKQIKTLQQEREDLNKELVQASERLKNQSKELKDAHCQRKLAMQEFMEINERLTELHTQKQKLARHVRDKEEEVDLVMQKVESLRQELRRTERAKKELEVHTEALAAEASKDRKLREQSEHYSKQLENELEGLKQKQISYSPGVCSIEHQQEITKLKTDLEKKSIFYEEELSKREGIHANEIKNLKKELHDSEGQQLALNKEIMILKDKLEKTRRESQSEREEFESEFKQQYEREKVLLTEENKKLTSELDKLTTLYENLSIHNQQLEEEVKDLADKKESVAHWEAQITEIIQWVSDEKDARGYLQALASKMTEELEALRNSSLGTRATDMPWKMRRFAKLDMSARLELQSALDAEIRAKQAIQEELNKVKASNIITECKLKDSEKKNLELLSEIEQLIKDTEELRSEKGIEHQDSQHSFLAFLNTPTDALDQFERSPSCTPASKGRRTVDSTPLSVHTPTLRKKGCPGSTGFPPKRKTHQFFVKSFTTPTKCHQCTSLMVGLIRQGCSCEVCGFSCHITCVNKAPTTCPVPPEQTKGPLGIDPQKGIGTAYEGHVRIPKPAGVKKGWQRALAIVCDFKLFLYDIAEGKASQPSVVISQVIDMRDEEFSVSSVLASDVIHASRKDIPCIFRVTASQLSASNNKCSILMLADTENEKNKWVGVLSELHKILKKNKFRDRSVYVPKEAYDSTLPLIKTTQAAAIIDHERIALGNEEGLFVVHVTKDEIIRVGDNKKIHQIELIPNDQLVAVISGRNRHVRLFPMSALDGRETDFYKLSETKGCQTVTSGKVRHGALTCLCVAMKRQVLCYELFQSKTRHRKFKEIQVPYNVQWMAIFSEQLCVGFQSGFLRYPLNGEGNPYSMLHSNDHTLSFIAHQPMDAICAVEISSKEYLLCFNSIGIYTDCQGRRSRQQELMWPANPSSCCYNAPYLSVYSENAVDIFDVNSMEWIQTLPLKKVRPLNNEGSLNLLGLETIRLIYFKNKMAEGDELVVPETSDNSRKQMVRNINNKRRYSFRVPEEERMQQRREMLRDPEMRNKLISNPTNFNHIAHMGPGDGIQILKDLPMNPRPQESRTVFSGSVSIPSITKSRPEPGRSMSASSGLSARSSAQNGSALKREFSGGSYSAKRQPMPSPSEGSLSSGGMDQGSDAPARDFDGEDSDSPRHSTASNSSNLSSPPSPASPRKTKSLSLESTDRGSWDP
Chain of UniProt Q9H3N8 (whole entry, looked up): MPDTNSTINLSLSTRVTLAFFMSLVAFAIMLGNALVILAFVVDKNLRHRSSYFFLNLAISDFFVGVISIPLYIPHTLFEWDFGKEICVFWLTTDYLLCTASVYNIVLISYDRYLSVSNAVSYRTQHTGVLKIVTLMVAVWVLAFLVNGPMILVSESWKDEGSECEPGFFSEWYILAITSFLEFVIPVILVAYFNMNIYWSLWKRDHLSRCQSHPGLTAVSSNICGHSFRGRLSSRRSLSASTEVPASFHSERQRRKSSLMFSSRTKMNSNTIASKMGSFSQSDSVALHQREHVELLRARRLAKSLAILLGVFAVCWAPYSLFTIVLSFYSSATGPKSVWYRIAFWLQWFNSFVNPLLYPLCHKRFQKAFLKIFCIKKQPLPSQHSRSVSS
Chain of UniProt P08172 (whole entry, looked up): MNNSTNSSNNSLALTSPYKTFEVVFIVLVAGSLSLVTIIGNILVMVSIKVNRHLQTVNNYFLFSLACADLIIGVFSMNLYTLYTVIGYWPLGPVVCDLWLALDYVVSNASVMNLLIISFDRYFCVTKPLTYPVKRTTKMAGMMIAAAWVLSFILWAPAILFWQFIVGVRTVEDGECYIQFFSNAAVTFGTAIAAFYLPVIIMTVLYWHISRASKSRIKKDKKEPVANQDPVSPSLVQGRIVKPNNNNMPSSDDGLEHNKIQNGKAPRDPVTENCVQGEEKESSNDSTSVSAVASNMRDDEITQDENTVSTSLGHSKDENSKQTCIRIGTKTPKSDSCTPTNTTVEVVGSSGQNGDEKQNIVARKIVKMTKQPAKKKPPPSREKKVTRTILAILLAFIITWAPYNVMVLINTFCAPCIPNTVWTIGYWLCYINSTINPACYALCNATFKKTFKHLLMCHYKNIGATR
Chain of UniProt O00506 (whole entry, looked up): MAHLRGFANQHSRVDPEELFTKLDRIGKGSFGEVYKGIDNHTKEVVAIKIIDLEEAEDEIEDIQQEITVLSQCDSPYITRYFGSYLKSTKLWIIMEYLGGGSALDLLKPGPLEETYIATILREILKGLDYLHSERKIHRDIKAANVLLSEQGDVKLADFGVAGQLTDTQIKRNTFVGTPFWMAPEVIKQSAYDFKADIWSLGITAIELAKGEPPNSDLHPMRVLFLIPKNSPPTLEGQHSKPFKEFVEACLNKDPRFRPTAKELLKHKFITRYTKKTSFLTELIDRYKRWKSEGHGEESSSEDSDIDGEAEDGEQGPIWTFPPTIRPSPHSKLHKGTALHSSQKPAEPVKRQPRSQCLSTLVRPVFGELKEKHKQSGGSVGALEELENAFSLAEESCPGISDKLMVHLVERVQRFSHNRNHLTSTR

Study 1 — effect on: enzyme activity; action: inhibitor; concentration: 0.5 µM; reference: control
SMILES: N#Cc1cnc2cnc(NCc3cccnc3)cc2c1Nc1ccc(F)c(Cl)c1
target	remaining activity
cAMP-dependent protein kinase catalytic subunit PRKX (PRKX, Homo sapiens, UniProt P51817)	101%
Homeodomain-interacting protein kinase 1 (HIPK1, Homo sapiens, UniProt Q86Z02)	98.6%
Tyrosine-protein kinase Fer (FER, Homo sapiens, UniProt P16591)	82.9%
Proto-oncogene tyrosine-protein kinase Src (SRC, Homo sapiens, UniProt P12931)	92.6%
Serine/threonine-protein kinase Nek11 (NEK11, Homo sapiens, UniProt Q8NG66)	87.1%
PAS domain-containing serine/threonine-protein kinase (PASK, Homo sapiens, UniProt Q96RG2)	124%
Tyrosine-protein kinase Fyn (FYN, Homo sapiens, UniProt P06241)	103%
MAP/microtubule affinity-regulating kinase 3 (MARK3, Homo sapiens, UniProt P27448)	101%
Tyrosine-protein kinase Fgr (FGR, Homo sapiens, UniProt P09769)	84.5%
RAC-alpha serine/threonine-protein kinase (AKT1, Homo sapiens, UniProt P31749)	98.6%
Tyrosine-protein kinase ITK/TSK (ITK, Homo sapiens, UniProt Q08881)	99.1%
LIM domain kinase 1 (LIMK1, Homo sapiens, UniProt P53667)	101%
Serine/threonine-protein kinase 25 (STK25, Homo sapiens, UniProt O00506)	95.6%
Serine/threonine-protein kinase TAO3 (TAOK3, Homo sapiens, UniProt Q9H2K8)	99.2%
ALK tyrosine kinase receptor (ALK, Homo sapiens, UniProt Q9UM73)	107%
Vascular endothelial growth factor receptor 3 (FLT4, Homo sapiens, UniProt P35916)	96.2%
Serine/threonine-protein kinase N1 (PKN1, Homo sapiens, UniProt Q16512)	101%
Insulin receptor (INSR, Homo sapiens, UniProt P06213)	85.1%
Serine/threonine-protein kinase MRCK alpha (CDC42BPA, Homo sapiens, UniProt Q5VT25)	80%
Megakaryocyte-associated tyrosine-protein kinase (MATK, Homo sapiens, UniProt P42679)	95.9%
Cyclin-dependent kinase 3, with cyclin E (CDK3, Homo sapiens, UniProt Q00526)	95.6%
Serine/threonine-protein kinase NLK (NLK, Homo sapiens, UniProt Q9UBE8)	88%

Study 2 — effect on: binding; method: radioligand binding; concentration: 10 µM
SMILES: CCC(=O)N[C@H]1CC[C@@H](C(=O)N(C)c2ccc(-c3nc4ccccc4o3)cc2)C1
target	inhibition
Alpha-2B adrenergic receptor (ADRA2B, Homo sapiens, UniProt P18089)	5.31%
Beta-3 adrenergic receptor (ADRB3, Homo sapiens, UniProt P13945)	34.9%
Alpha-1B adrenergic receptor (ADRA1B, Homo sapiens, UniProt P35368)	-6.32%
5-hydroxytryptamine receptor 3A (HTR3A, Homo sapiens, UniProt P46098)	-1.4%
Histamine H2 receptor (HRH2, Homo sapiens, UniProt P25021)	-1.25%
Muscarinic acetylcholine receptor M2 (CHRM2, Homo sapiens, UniProt P08172)	4.58%
Alpha-2C adrenergic receptor (ADRA2C, Homo sapiens, UniProt P18825)	-5.31%
5-hydroxytryptamine receptor 7 (HTR7, Homo sapiens, UniProt P34969)	-6.53%
Muscarinic acetylcholine receptor M4 (CHRM4, Homo sapiens, UniProt P08173)	28.9%
Histamine H4 receptor (HRH4, Homo sapiens, UniProt Q9H3N8)	39.3%
D(1A) dopamine receptor (DRD1, Homo sapiens, UniProt P21728)	-2.15%
Histamine H1 receptor (HRH1, Homo sapiens, UniProt P35367)	20.9%

Study 3 — cell line: HaCaT; concentration: 100 µM; time: 36 h
SMILES	viability
CCNC(=O)CCC/C=C\C[C@@H]1[C@@H](/C=C/[C@@H](O)CCc2ccccc2)[C@H](O)C[C@@H]1O	66.2%
CCN(CC)C(=O)/C(C#N)=C/c1cc(O)c(O)c([N+](=O)[O-])c1	45.6%
CCc1nn(CCCN2CCN(c3cccc(Cl)c3)CC2)c(=O)n1CCOc1ccccc1	6.25%
CN[C@@H]1[C@@H](O[C@H]2O[C@H](CO)[C@@H](N)[C@H](O)[C@H]2O)O[C@H]2C[C@@H](N)[C@@H](O[C@H]3[C@H](O)[C@@H](O)[C@H](N)C[C@@H]3N)O[C@@H]2[C@@H]1O	96.9%
C[C@]12CCC(=O)C=C1CC[C@@H]1[C@@H]2[C@@H](O)C[C@@]2(C)[C@H]1CC[C@]2(O)C(=O)CO	96%
CC#CCn1c(N2CCC[C@@H](N)C2)nc2c1c(=O)n(Cc1nc(C)c3ccccc3n1)c(=O)n2C	25.7%
CCC(=O)OCC(=O)[C@@]1(OC(=O)CC)[C@@H](C)C[C@H]2[C@@H]3CCC4=CC(=O)C=C[C@]4(C)[C@@]3(F)[C@@H](O)C[C@@]21C	96%
CCNC(=O)[C@@H]1CCCN1C(=O)[C@H](CCCNC(=N)N)NC(=O)[C@H](CC(C)C)NC(=O)[C@@H](C)NC(=O)[C@H](Cc1ccc(O)cc1)NC(=O)[C@H](CO)NC(=O)[C@H](Cc1c[nH]c2ccccc12)NC(=O)[C@H](Cc1c[nH]cn1)NC(=O)[C@@H]1CCC(=O)N1	82.8%
NNc1nncc2ccccc12	60.4%
COc1cc(N)c(Cl)cc1C(=O)N[C@@H]1CCN(CCCOc2ccc(F)cc2)C[C@@H]1OC (racemic)	81.9%
c1cc(CN2CCCNCCNCCCNCC2)ccc1CN1CCCNCCNCCCNCC1	94.8%
CC[C@]1(O)C[C@H]2CN(CCc3c([nH]c4ccccc34)[C@@](C(=O)OC)(c3cc4c(cc3OC)N(C=O)[C@H]3[C@@](O)(C(=O)OC)[C@H](OC(C)=O)[C@]5(CC)C=CCN6CC[C@]43[C@@H]65)C2)C1	23.5%
C=CCc1cc(OC)c(O)c(C(=O)NCCO)c1	98.4%

Study 4 — effect on: enzyme activity; action: inhibitor; concentration: 10 µM
Target: Calcium/calmodulin-dependent protein kinase type II subunit alpha (CAMK2A, Homo sapiens, UniProt Q9UQM7)
Chain of UniProt Q9UQM7 (whole entry, looked up): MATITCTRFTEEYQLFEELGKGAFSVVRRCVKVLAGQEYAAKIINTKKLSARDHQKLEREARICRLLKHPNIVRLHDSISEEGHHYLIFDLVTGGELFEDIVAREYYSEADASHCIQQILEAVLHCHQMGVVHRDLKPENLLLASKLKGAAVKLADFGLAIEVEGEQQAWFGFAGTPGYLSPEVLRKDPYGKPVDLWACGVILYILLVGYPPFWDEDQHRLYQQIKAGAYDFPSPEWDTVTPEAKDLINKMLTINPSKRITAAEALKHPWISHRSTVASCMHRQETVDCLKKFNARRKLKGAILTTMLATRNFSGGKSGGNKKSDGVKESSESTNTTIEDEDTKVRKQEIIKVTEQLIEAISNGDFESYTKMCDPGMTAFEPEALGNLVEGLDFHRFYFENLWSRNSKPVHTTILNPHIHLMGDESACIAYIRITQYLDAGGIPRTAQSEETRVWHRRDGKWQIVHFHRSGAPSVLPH
SMILES	inhibition [%]
CN(C/C=C/c1ccccc1)Cc1cccc2ccccc12	1
C=Cc1c(C)c2cc3[nH]c(cc4nc(cc5nc(cc1[nH]2)C(C)=C5CCC(=O)O)C(CCC(=O)O)=C4C)c(C)c3C=C	-9
Cc1ccc(-c2cc(C(F)(F)F)nn2-c2ccc(S(N)(=O)=O)cc2)cc1	-1
OC[C@H]1O[C@@](CO)(OC[C@@]2(OC[C@@]3(O[C@H]4O[C@H](CO)[C@@H](O)[C@H](O)[C@H]4O)O[C@H](CO)[C@@H](O)[C@@H]3O)O[C@H](CO)[C@@H](O)[C@@H]2O)[C@@H](O)[C@@H]1O	-20
O=C(O)c1cc(/N=N/c2ccc(O)c(C(=O)O)c2)ccc1O	-6
C=C1C(=O)O[C@H]2[C@H]1CCC(C)=C1CC[C@@](C)(O)[C@@H]12	13
O=C(O)/C=C/C=C/C(=O)O	-7
CC(=O)c1c(C)cc2cccc(O)c2c1O	12
CCn1c(=O)c(-c2cc(NC(=O)Nc3ccccc3)c(F)cc2Br)cc2cnc(NC)cc21	-7
O=C(N/N=C/c1ccc([N+](=O)[O-])o1)c1ccc(O)cc1	-9
O=C(O)c1cc(=O)c2ccccc2o1	-5
CC(C)OC(=O)CCC/C=C\C[C@@H]1[C@@H](/C=C/C(F)(F)COc2ccccc2)[C@H](O)C[C@@H]1O	-4
CC(=O)O[C@H]1C[C@@H]2CC[C@@H]3[C@H](CC[C@@]4(C)[C@H]3C[C@H]([N+]3(C)CCCCC3)[C@@H]4OC(C)=O)[C@@]2(C)C[C@@H]1N1CCCCC1	8
O=C(O[C@@H]1Cc2c(O)cc(O)cc2O[C@@H]1c1cc(=O)c(O)c2c(O)c(O)cc([C@H]3Oc4cc(O)cc(O)c4C[C@H]3O)c2c1)c1cc(O)c(O)c(O)c1	-151
N[C@@H](Cc1ccccc1)C(=O)N[C@@H](Cc1c[nH]c2ccccc12)C(=O)O	-13
Nc1ccc(-c2ccccc2)cn1	-43
CCOC(=O)OC(C)OC1=C(C(=O)Nc2ccccn2)N(C)S(=O)(=O)c2ccccc21 (centres unmarked)	-10
C[C@@H]1O[C@@H](O[C@@H]2C(=O)c3c(O)cc(O)cc3O[C@@H]2c2ccc(O)c(O)c2)[C@H](O)[C@H](O)[C@H]1O	-22

For quick reference, copied from above (study 1):
target	remaining activity
Serine/threonine-protein kinase MRCK alpha (CDC42BPA, Homo sapiens, UniProt Q5VT25)	80%
Tyrosine-protein kinase Fyn (FYN, Homo sapiens, UniProt P06241)	103%
PAS domain-containing serine/threonine-protein kinase (PASK, Homo sapiens, UniProt Q96RG2)	124%
cAMP-dependent protein kinase catalytic subunit PRKX (PRKX, Homo sapiens, UniProt P51817)	101%
Serine/threonine-protein kinase 25 (STK25, Homo sapiens, UniProt O00506)	95.6%
Vascular endothelial growth factor receptor 3 (FLT4, Homo sapiens, UniProt P35916)	96.2%
Serine/threonine-protein kinase NLK (NLK, Homo sapiens, UniProt Q9UBE8)	88%
Homeodomain-interacting protein kinase 1 (HIPK1, Homo sapiens, UniProt Q86Z02)	98.6%
